Measurements collected from several papers.
Each numbered part is a random draw from the data of one study; scales do not carry over between parts. Changes are numbered by the printed parent chain.

Series 1 — technique: RNA Bind-n-Seq; molecule type: RNA; sample: in vitro; tested at: 1 µM; notes: whole 134-nt RNA, ends assumed; with: 150 mM KCl; relative to: input library; reading: higher = stronger binding
Target: Ras GTPase-activating protein-binding protein 1, C-terminal RGG region (G3BP1, Homo sapiens, UniProt Q13283)
Sequence of UniProt Q13283 (whole entry, looked up): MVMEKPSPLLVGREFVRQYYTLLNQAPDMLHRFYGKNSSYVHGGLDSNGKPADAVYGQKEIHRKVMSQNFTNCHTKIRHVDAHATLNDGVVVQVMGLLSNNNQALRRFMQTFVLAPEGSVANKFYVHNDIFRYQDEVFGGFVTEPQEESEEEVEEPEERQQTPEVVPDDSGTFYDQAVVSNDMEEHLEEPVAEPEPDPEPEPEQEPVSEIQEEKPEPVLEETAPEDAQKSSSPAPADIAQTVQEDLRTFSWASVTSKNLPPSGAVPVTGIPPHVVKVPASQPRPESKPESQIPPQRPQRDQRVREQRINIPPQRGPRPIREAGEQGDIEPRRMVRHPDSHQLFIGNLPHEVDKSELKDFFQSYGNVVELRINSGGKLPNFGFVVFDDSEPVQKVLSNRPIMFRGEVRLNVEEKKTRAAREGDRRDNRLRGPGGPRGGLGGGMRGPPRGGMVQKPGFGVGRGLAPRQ
Constant ends, left off below: GGGAGUUCUACAGUCCGACGAUC … UGGAAUUCUCGGGUGUCAAGG
Strand	log2 enrichment
ACCAUGCAGGUGGGCAUCUUUGGGAAAAAGGGCAAGGGGGGGAUAGGGAGGGGGGUAACACUUUGGGAACAGGUGGUCCCAGGUCGUUUC	-0.9
UAAUUGAAGAACCCAUUUUGCUCAUUUUAGGCAUCGUUAAAGAAUCUGGAGUGAAGCACAAGGGAUUGAUUGAAAUACCCAAUCUUUCUG	-0.0451
UGGGAGGUGGAUUUUGUUUAUUUUUUUAGCUCAUUUCCAGGGGUGGGAAUUUUUUCUUAAUAUGUGUCAUGAAUAAAGUUGUUUUUGAAA	3.76
CCUCAAGUCCUGUGCUACACAUCGUAUGUACCGAAUCGGGGAGGAGGGGAGGAAAGUAUUAUGUUACGCCGUUCGGAUCUGCACUUCCAG	-0.483
UAACUUUAGAGGAGGAUCUGAUGGAUAUGGCAGUGGACGUGGAUUUGGGGAUGGCUAUAAUGGGUAUGGAGGACGACCUGGAGGUGGCAA	-1.43
UCCUCAAGUCCUGUGCUACACAUCGUAUGUACCGAAUCGGCGGGCGGGCGGGAAAGUAUUAUGUUACGCCGUUCGGAUCUGCACUUCCAG	0.942
CUCAAGUCCUGUGCUACACAUCGUAUGUACCGAAUCGGUUUUUGGAAAGGUGGAAAGUAUUAUGUUACGCCGUUCGGAUCUGCACUUCCA	-1.02
GGAGUGCCGUGAGCAGGCCGCGGGAACGUCGCCGUCACCUUGUCUCGGGGCCUCGGCGCUGCUUCCCGCCAAAACACGUUUACCGCGCGC	-2.36

Series 2 — effect on: binding; technique: phage display NGS; molecule type: peptide; tested at: concentration not given; relative to: input library
Target: UDP-N-acetylglucosamine--peptide N-acetylglucosaminyltransferase 110 kDa subunit (OGT, Homo sapiens, UniProt O15294)
Construct (O15294 1-1046): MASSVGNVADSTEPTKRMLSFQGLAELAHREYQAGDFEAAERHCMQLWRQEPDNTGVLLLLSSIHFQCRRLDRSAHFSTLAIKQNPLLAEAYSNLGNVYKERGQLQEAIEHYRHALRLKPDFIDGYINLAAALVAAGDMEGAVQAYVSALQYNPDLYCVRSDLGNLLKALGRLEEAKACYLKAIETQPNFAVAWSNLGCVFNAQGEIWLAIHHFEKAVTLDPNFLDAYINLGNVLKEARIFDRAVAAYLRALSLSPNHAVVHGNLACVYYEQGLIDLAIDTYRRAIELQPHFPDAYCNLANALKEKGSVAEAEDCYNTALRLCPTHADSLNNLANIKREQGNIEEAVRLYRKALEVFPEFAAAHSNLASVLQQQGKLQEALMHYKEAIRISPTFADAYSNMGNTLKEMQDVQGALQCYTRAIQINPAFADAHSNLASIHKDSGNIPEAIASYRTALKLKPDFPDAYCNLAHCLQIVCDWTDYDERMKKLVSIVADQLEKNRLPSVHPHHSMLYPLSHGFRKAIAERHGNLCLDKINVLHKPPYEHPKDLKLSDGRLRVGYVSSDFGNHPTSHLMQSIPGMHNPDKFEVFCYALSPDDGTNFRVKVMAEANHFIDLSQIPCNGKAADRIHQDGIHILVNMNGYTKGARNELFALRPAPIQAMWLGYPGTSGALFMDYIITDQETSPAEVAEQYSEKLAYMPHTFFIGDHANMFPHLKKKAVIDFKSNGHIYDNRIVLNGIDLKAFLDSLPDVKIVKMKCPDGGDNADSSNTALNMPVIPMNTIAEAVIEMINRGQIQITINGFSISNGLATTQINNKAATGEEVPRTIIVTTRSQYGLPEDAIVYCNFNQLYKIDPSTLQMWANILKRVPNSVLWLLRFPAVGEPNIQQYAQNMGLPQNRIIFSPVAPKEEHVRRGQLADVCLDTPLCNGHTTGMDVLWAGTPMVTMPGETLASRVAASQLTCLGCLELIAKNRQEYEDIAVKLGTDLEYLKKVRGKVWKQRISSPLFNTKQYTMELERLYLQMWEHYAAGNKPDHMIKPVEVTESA
Sequence	enrichment fold change
HVFHDQQSLLHMDKH	9.73
DAPWHKTHHMLPYSH	5.05
TNSANKPVHHHVVDT	2.26
NPHAHHIVSHTGFVH	4.32
HPIHPHRNKFDVMFI	3.34
HMKHMAIAMGGHFHT	3.85
QWPVIGWHTHATYIH	2.71
DINLWMMHDHVHHVK	9.67
FPHHILQHHRQDDFH	4.95
ENVVWPHYHHHSTYI	3.93
QHQHHQIITHYVDVA	2.69
TVVMTLPHHHHGRGD	5.65
TAPFYPPAYEI	1.59
HVFHHDVVRDYHNMH	5.75
RMTPQFRPFYQIIMR	5.56
RTFFPMYEIVIGMT	2.65
YAPQYQILFNYNIKL	15.6
HWQDHHFVSDNTYFR	3.94
QHEFQRILSHHHSYS	4.57
YSTHDTHMWHQTHAM	3.69
HTPRVDYRFHATHHH	6.35
HTASQPQHTYWHRTQ	2.46
EMEVYDYFPFYQIQV	3.11
HLHGHTYMPRHGEVT	13.6
HLPSHYEAKPTKHHR	9.36

Series 3 — target: CCNE2, cyclin fold, Cln2 fusion (human); technique: yeast growth competition, sequencing; sample: yeast; notes: strong parent motif; relative to: not given; reading: higher = stronger binding
Starting sequence: viral docking peptide; TSVRRALFTGGSD; partner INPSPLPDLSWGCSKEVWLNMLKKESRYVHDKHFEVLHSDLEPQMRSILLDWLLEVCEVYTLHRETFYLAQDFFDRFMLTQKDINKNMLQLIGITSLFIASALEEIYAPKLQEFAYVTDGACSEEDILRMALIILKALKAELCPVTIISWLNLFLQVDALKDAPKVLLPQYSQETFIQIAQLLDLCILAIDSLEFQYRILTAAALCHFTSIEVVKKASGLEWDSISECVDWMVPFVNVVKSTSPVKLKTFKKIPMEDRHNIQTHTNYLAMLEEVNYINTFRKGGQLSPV
Variant	normalised enrichment score
TLVRRALFTGGSD [S2L]	2.13
TSVRRALSTGGSD [F8S]	0.109
TSVVRALFTGGSD [R4V]	3.45
TSVCRALFTGGSD [R4C]	3.41
TSVRRALKTGGSD [F8K]	0.00642
TSVRRMLFTGGSD [A6M]	2.71
TSVRRYLFTGGSD [A6Y]	0.345
TSVRRADFTGGSD [L7D]	-0.0709
TSVRRALFTGGND [S12N]	4.28
TSVRRALFGGGSD [T9G]	3.32
TSVRRALFTGMSD [G11M]	3.7
TSVRRALQTGGSD [F8Q]	-0.0201
TSFRRALFTGGSD [V3F]	1.52
TSVRRALFTGLSD [G11L]	3.44
TSTRRALFTGGSD [V3T]	0.95
TSMRRALFTGGSD [V3M]	0.83
TSVYRALFTGGSD [R4Y]	0.604
TSVRRELFTGGSD [A6E]	2.06
TSVRRALITGGSD [F8I]	-0.0425
TSVQRALFTGGSD [R4Q]	0.672
TSVRRALFTTGSD [G10T]	3.98
TSVRRALFDGGSD [T9D]	2.57
TSVRRALFTDGSD [G10D]	5.03
TSVRRALFTGGAD [S12A]	3.78
TSVRRALFTGPSD [G11P]	4.42

Series 4 — target: vanadate, free oxyanion; technique: microfluidic competitive inhibition; sample: in vitro, cell-free expressed; tested at: not given; reading: lower = stronger binding
Notes: derived from inhibition constants, unchanged parent 676 nM
Starting sequence: PafA, mature enzyme, eGFP fusion (Elizabethkingia meningoseptica, UniProt Q9KJX5); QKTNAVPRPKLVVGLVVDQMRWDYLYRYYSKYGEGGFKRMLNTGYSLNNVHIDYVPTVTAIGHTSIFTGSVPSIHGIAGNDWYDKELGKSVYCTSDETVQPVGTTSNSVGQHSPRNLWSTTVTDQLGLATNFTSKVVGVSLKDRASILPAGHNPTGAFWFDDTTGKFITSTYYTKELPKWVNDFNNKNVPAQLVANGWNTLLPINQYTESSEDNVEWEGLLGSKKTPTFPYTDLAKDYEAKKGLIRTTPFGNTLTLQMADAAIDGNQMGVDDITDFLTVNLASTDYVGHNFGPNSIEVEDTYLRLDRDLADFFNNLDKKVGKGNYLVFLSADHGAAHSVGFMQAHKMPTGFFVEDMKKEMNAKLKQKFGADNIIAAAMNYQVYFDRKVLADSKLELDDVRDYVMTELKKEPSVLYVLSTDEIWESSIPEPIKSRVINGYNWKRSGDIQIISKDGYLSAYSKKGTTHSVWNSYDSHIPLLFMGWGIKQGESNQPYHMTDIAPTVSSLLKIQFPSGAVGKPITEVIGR
Variant	oxyanion analog dissociation constant
H75G	457 nM
Q510V	800 nM
R246V	3.07 µM
L507G	1.18 µM
N491G	718 nM
E34V	649 nM
G243V	491 nM
T155G	909 nM

A few entries again (series 1):
Strand	log2 enrichment
ACCAUGCAGGUGGGCAUCUUUGGGAAAAAGGGCAAGGGGGGGAUAGGGAGGGGGGUAACACUUUGGGAACAGGUGGUCCCAGGUCGUUUC	-0.9
UAAUUGAAGAACCCAUUUUGCUCAUUUUAGGCAUCGUUAAAGAAUCUGGAGUGAAGCACAAGGGAUUGAUUGAAAUACCCAAUCUUUCUG	-0.0451
UGGGAGGUGGAUUUUGUUUAUUUUUUUAGCUCAUUUCCAGGGGUGGGAAUUUUUUCUUAAUAUGUGUCAUGAAUAAAGUUGUUUUUGAAA	3.76
CCUCAAGUCCUGUGCUACACAUCGUAUGUACCGAAUCGGGGAGGAGGGGAGGAAAGUAUUAUGUUACGCCGUUCGGAUCUGCACUUCCAG	-0.483
UAACUUUAGAGGAGGAUCUGAUGGAUAUGGCAGUGGACGUGGAUUUGGGGAUGGCUAUAAUGGGUAUGGAGGACGACCUGGAGGUGGCAA	-1.43
UCCUCAAGUCCUGUGCUACACAUCGUAUGUACCGAAUCGGCGGGCGGGCGGGAAAGUAUUAUGUUACGCCGUUCGGAUCUGCACUUCCAG	0.942
CUCAAGUCCUGUGCUACACAUCGUAUGUACCGAAUCGGUUUUUGGAAAGGUGGAAAGUAUUAUGUUACGCCGUUCGGAUCUGCACUUCCA	-1.02
GGAGUGCCGUGAGCAGGCCGCGGGAACGUCGCCGUCACCUUGUCUCGGGGCCUCGGCGCUGCUUCCCGCCAAAACACGUUUACCGCGCGC	-2.36
